# Experimental data pooled from the literature.
# Each numbered part is a random draw from the data of one study; scales do not carry over between parts. Changes are numbered by the printed parent chain.

# Study 1 — method: universal PBM; form: double-stranded DNA, one strand shown; matrix: in vitro; tested at: 600 nM; direction: higher = stronger binding
# Target: Sal-like protein 4, full length isoform A (SALL4, Homo sapiens, UniProt Q9UJQ4, residues 1-1053)
# UniProt Q9UJQ4, sequence (whole entry, looked up): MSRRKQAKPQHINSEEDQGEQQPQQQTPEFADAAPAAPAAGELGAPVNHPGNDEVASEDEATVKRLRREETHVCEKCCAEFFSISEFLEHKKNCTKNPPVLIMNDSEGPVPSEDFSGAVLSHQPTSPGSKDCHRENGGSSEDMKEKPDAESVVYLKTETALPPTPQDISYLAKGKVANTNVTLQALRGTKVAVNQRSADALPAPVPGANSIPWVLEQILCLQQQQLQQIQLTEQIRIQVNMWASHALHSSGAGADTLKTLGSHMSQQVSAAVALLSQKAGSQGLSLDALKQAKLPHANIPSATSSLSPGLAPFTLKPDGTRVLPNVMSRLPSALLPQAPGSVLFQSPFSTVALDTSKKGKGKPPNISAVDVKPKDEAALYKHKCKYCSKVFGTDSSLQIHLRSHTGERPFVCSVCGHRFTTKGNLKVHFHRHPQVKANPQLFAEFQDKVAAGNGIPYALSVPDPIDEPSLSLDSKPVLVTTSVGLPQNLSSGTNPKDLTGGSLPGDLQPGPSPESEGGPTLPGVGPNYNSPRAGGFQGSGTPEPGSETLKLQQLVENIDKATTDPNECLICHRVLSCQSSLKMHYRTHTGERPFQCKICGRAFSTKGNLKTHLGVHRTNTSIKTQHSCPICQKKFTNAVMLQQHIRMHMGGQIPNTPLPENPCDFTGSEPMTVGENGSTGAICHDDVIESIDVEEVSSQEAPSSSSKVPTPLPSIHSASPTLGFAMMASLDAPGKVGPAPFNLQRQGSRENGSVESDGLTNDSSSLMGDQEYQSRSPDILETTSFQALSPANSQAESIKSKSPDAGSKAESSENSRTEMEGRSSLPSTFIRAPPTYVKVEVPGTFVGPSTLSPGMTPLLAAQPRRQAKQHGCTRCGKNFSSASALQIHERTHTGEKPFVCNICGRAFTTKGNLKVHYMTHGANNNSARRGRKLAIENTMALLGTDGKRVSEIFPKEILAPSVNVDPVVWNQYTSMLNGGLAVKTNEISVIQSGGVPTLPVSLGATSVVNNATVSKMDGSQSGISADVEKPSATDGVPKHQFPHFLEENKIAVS
# Setting: 8-mer, flanks averaged, mean of replicates
Oligonucleotide,E-score
ATTACCCA,0.0861
AGATCCAA,-0.0705
ACGGACGC,-0.262
TCCGGTCA,-0.304
CAGTTATA,0.275
GCGAGTCA,-0.129
AGCCCCTG,-0.376
ACCGCTCC,-0.229
AGAACACC,-0.107
AATGTTGC,0.12
GCCGTTTA,-0.0126
GGGTGCAA,-0.168
CAGGGATC,-0.313
ACTGCTCG,-0.0756
ATTGAGTG,0.0818
CACTATTA,0.239
CGGGCACC,-0.254
ATTAGGTC,0.226
GGCAGGAA,-0.09
CAGGTGTA,-0.046
GCCAGTGA,-0.215
AATGGCGG,-0.254
CCCTCCCC,-0.162
ACCACAGT,-0.0395

# Study 2 — method: RNA Bind-n-Seq; form: RNA; matrix: in vitro; tested at: 365 nM; relative to: no-protein control; direction: higher = stronger binding
# Target: RNA binding protein fox-1 homolog 2, RRM domain, GST-SBP tag (RBFOX2, Homo sapiens, UniProt O43251-10, residues 100-194)
# Setting: natural RNA segment, single round, ends assumed
# Constant ends, left off below: GGGAGUUCUACAGUCCGACGAUC … UGGAAUUCUCGGGUGCCAA
# Construct (chain): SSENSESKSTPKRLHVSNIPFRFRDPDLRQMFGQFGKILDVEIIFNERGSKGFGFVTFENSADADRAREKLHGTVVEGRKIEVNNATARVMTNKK
Oligonucleotide,RBNS enrichment (R)
CCUAAUAUGAUAUAUUAUUUUGUAGUAUCUCAGACUUUGUAAAUAAAUGCCAUUAUUUUUAUAUGGAAAUUUUAUAGAAGAGCUAUUUCUGUAUACGUAAUUACUCCUGA,0.628
AUCCAAAUACGUGGGACUCAAAGACUCCUAGUCAGCUGUAGUUCUGGAGGCUCUGAAUGUCUAACUUUAGCAUCAAAGUGUCUGUCUCAGAUUCCCAGUAAACACCUCUG,0.841
GAAUUAAAAAAAAAAAGCUUUGCCAAUAGCUAAAAAGUACAAGCUAUUAAAAAUCAGAUUGAAAAGUUUUGAGAAAAUGUUAUUUUUACUGAAAGCAAGCAGUGGCCUAU,0.706
UAUCCUUCACCACCCCCAGUCCCAGCACCUGUGUCAGUAAAGAAAGUGGACACAUUAGUAAUGGUUAUGGGAGUAAUACAGAGAAAGAGGUGAGUGGAGACUCAGCCCAG,0.567
GUAAUUUAGCUGAGAGAAUUCUUUUUCCCAACAGUGAAACAAGUGGGCCUCCUAGAAACUUUAUUGCAGAGAUGACUGGAGGCCAUUGGUGUUUCCAGGAGAGCUAGCAU,2.9
CAUUUUCACUUCCAGUCUAAGCCAGUGGCUCCUGCCACUGCCCUCCCAUUACCUAGAUGGCACCUCCUUUGGUGAAACCACGGCCAAUGUUCCUUAGCUGCACCAGGCCC,0.436
UUUGUGUGACUAAAAUGAAACAAGACAGUUGAAUUGUGUGACUUGAAGAUUACCAAUGAUUUUGAGGCUUUUCUAUAAUAAAAAGAGGUUCUAACCAUUAUUUGGGAACA,0.575
GCUUGUUUCCUGUCAGCCAUCUCUGUCUUUGGGUAUGAAACAUAAGGAUGGCUCCUCCGGUGUCGUGUUCUCUACCUAUAGAGCCAGCUCUGAAUGGAUGUGUUACCAGA,1.8
GCUUAUCUUUCUCUGGAGUUACGGAUUUGCCUGUGGAUUUAAUGCUCACACCAUGCUAUUUAAUUUUUAAAGUAACUUUUCAGAAAAUAUUACUGGCGUUUUGUUCAUUU,1.1
CCACAUGUAGCUACUACAGCAAGGCUUCUGUGUACUUGCCGGAAACGAAGGGAGGUCCUGCUCACUCCAUUUCUUUCGUUUGAAGCAGAAGGGAUGUGUAGCCAGGGAAG,0.555
ACCCCAAUCUCCAGUGUCUGUAGCUCUUGCCUGCAAGUCUUGCUUGUGGGGUGACGAGGGGUGUAGAAUACCCCGAACCCUCUUCCAGGACAAAGCCAGGAGUGGAGCUG,0.25
CUUAGGUCUAGUCGCUAGAUCCCCCGUUUUCCCAAGAAGAGGGUUCGAGCCCUUGGUGGGGACAGCUGGGGAGAUGGCAGUGCAGGCUGGAACCUGGGCUGCCCCAGAAC,0.26

# Study 3 — method: protein-binding microarray; form: double-stranded DNA, one strand shown; matrix: in vitro; tested at: not given; direction: higher = stronger binding
# Target: Protein max, full length (MAX, Homo sapiens, UniProt P61244-2, residues 1-151)
# Setting: k-mer, scored over probes, only values ≥0.25
Oligonucleotide,E-score
CACGCCGC,0.398
CACGTTAG,0.353
GACATGCA,0.275
ATCCCGTG,0.293
CGCTCACG,0.294
ACATGAGC,0.312
AAGGCACG,0.337
CCTCACGC,0.33
ATACCACG,0.37
ATGCCGCG,0.256
ACGCGCGA,0.251
AGCACGCG,0.459
CGCACACA,0.283
GGAGTGCA,0.278
CACGCGTA,0.434
CGCGGACC,0.265
ACTAAGCA,0.282
CGTGTTAA,0.322
ACGCGACG,0.304
CGTGGTGC,0.398
GTGGCCAC,0.392

# Study 4 — target: CCNB3, cyclin fold, Cln2 fusion (human); method: yeast growth competition, sequencing; matrix: yeast; setting: weak parent motif; relative to: not given; direction: higher = stronger binding
# Starting sequence: DOT1L docking peptide (human); SEAKRRIVFTITT; partner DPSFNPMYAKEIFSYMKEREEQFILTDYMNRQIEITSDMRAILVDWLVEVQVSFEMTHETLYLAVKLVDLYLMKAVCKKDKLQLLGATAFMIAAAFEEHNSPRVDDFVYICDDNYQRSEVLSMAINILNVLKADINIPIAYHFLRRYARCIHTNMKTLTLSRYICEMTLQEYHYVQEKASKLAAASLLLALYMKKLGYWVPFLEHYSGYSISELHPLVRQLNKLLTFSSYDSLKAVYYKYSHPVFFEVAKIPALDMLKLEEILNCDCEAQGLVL
Change,normalised enrichment score
F9A,0.314
E2A,0.603
R6A,0.0841
V8A,0.431
I11A,0.249
R5A,-0.0725

# Study 5 — method: protein binding microarray; form: double-stranded DNA, one strand shown; matrix: in vitro; tested at: not given; relative to: not given; direction: higher = stronger binding
# Target: Histone acetyltransferase KAT6A, winged helix 2, GST fusion (KAT6A, Homo sapiens, UniProt Q92794, residues 85-181)
# Setting: 8-mer, flanks averaged, mean of 2 arrays, mostly near background
# Construct (chain): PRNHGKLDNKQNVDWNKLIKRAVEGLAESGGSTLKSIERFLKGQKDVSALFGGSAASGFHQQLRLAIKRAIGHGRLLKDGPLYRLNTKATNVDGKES
Oligonucleotide,E-score
AATCCCGT,0.0428
ACTTGAAG,-0.0518
GCGCAAAC,0.144
GACTTTAC,-0.053
CATTAACG,-0.0918
AGATAGGC,-0.201
CAAAGTCA,-0.083
CGTATATA,-0.178
CTTCTCCC,0.0948
AGAGTTGA,0.0178
AGTGCAGC,0.191
ACACAACG,-0.131
CATTCAAG,-0.137
CCCAGCCG,0.108
CAATCCTC,-0.0952
GGTATACC,0.0412
GAAGCCGA,0.168
AGATAGCT,-0.0653
CCCCTGTC,-0.183
GCGTCACC,0.0291

# Study 6 — method: RNA Bind-n-Seq; form: RNA; matrix: in vitro; tested at: 200 nM; setting: whole 134-nt RNA, ends assumed; with: 150 mM LiCl; relative to: input library; direction: higher = stronger binding; all molecules: 7-deaza-guanosine replaces G
# Target: Fragile X messenger ribonucleoprotein 1, C-terminal low-complexity region (Fmr1, Mus musculus, UniProt P35922)
# Constant ends, left off below: GGGAGUUCUACAGUCCGACGAUC … UGGAAUUCUCGGGUGUCAAGG
Oligonucleotide,log2 enrichment
UAACUUUAGAGGAGGAUCUGAUGGAUAUGACAGUGGACGUGGAUUUGGGGAUGGCUAUAAUGGGUAUGGAGGAGGACCUGGAGGUGGCAA,0.589
CUGUGCUACACAUCGUAUGUACCGAAUCGGGGUUUUUUUGGGGUUUUUUUGGUUUUUUUGGAAAGUAUUAUGUUACGCCGUUCGGAUCUG,0.834
GUCCUGUGCUACACAUCGUAUGUACCGAAUCGGGGUUUGGGGUUUUUUUGGGGUGGGGAAAGUAUUAUGUUACGCCGUUCGGAUCUGCAC,-0.642
CCUGUGCUACACAUCGUAUGUACCGAAUCGGAAAAAAAGGGAAAAAAAGGGAAAAAAAGGGAAAGUAUUAUGUUACGCCGUUCGGAUCUG,-0.426
AGUCCUGUGCUACACAUCGUAUGUACCGAAUCGGGCCCCCGGGCCCCCGGGCCCCCGGAAAGUAUUAUGUUACGCCGUUCGGAUCUGCAC,-2.82
AAGUCCUGUGCUACACAUCGUAUGUACCGAAUCGGGAGGGAAAAAAAGGGAAAGGGAAAGUAUUAUGUUACGCCGUUCGGAUCUGCACUU,-0.215
UGGGAGGUGGAUUUUGUUUAUUUUUUUAGCUCAUUUCCAGGGGUGAGAAUUUUUUUUUAAUAUGUGUCAUGAAUAAAGUUGUUUUUGAAA,0.461
UGUGCUACACAUCGUAUGUACCGAAUCGGGGAAAAAGGGGAAAAAAAGGGGAAAAAAAGGGGAAAGUAUUAUGUUACGCCGUUCGGAUCU,1.08
UGGACCUGGUGGCAUGCGGGGAGGAAGAGGUGGCCUCAUGGAUCGUGGUGGUCCCGGUGGAAUGUUCAGAGGUGGCCGUGGUGGAGACAG,0.104
UGGGAGGUGGAUUUUGUUUAUUUUUUUAGCUCAUUUCCAGGGGUGGGAAUUUCUUUUUAAUAUGUGUCAUGAAUAAAGUUGUUUUUGAAA,-0.187
GUCCUGUGCUACACAUCGUAUGUACCGAAUCGGGAAAAAAGGGAAAAAAGGAAAAAAGGAAAGUAUUAUGUUACGCCGUUCGGAUCUGCA,-0.0865

# Repeated from above (study 5):
Oligonucleotide,E-score
AGAGTTGA,0.0178
AGTGCAGC,0.191
ACACAACG,-0.131
CATTCAAG,-0.137
CCCAGCCG,0.108
CAATCCTC,-0.0952
GGTATACC,0.0412
GAAGCCGA,0.168
AGATAGCT,-0.0653
